Measured values of several laboratories.
Each line is one published result; not all experiments were run side by side. ± gives the spread as reported.
TDP1: Tyrosyl-DNA phosphodiesterase 1 (TDP1, Homo sapiens, UniProt Q9NUW8)
UniProt Q9NUW8, sequence (whole entry, looked up): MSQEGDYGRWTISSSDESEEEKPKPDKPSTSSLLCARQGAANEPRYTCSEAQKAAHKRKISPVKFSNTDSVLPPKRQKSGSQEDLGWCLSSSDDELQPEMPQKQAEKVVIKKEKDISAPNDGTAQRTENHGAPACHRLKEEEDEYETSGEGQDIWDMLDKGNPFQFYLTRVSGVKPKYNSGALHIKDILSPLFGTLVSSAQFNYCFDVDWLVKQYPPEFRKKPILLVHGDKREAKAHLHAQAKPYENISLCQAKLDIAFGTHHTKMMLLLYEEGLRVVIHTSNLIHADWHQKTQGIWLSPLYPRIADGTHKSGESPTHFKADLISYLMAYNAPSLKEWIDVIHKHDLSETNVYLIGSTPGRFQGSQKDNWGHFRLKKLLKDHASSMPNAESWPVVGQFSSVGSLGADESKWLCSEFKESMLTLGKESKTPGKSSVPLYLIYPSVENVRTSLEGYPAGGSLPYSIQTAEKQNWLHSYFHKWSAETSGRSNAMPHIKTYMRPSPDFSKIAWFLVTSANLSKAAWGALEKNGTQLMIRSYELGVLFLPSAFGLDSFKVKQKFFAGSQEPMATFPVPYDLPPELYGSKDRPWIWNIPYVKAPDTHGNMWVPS

Structure (SMILES)	target or system	assay	system	conditions	quantity	value
N#C[C@@H]1CCCN1C(=O)CNC(=O)c1ccnc2ccc(OCCCN3CCN(C(=O)CCc4ccc5c(c4)CN4CCN6CC(=O)[O][68Ga-]([O]C(=O)C4)([O]5)[O]c4ccc(CCC(=O)N5CCN(CCCOc7ccc8nccc(C(=O)NCC(=O)N9CCC[C@H]9C#N)c8c7)CC5)cc4C6)CC3)cc12			BALB/c nude mice, U-87 MG xenograft, heart	2 h	tissue uptake	1.03 ± 0.06 %ID/g
CC(C)C[C@H](NC(=O)[C@@H](CCCCNC(=O)[C@@H](Cc1ccccc1)NC(=O)CCCCCCCNC(=O)CN1CCN(CC(=O)O)CCN(CC(=O)O)CCN(CC(=O)O)CC1)NC(=O)[C@H](Cc1ccc(O)cc1)NC(=O)[C@H](CO)NC(=O)[C@H](Cc1c[nH]c2ccccc12)NC(=O)[C@H](Cc1c[nH]cn1)NC(=O)[C@@H]1CCC(=O)N1)C(=O)N[C@@H](CCCNC(=N)N)C(=O)N1CCC[C@H]1C(=O)NCC(N)=O [indium-111 labelled]			male athymic nude mice, DU-145 prostate cancer xenograft, bone	intravenous, dose not given, 1 h, added: unlabeled blocking peptide 10 µg	tissue uptake	0.36 ± 0.13 %ID/g
O=C([O-])CN1CCN(CC(=O)[O-])CCN(CC(=O)NC[C@H]2CC[C@H](C(=O)N[C@H](Cc3cnc4ccccc4c3)C(=O)NCCCC[C@H](NC(=O)N[C@@H](CCC(=O)O)C(=O)O)C(=O)O)CC2)CCN(CC(=O)[O-])CC1.[64Cu+2]		ex vivo gamma counting	22Rv1 tumour-bearing mice, stomach	intravenous, 0.74 MBq, 24 h post-injection	tissue uptake	6.05 %ID/g
C=Cc1cccc(C=NOCc2ccc(-c3nc4cc(-c5ccccc5)ccn4c3Nc3ccc(C(=O)O)cc3)cc2)c1 (mixture of isomers)	TDP1	enzyme activity, inhibitor		100 µM, unpurified compound	inhibition	49.6%
COc1ccc2c(c1)C(C)(C)C(/C=C/C1=C(Oc3ccc(C(=O)NCCCCOc4cc(CN(Cc5ccccn5)Cc5ccccn5)cc(CN(Cc5ccccn5)Cc5ccccn5)c4)cc3)C(=C/C=C3/N(CCCCS(=O)(=O)[O-])c4ccc(OC)cc4C3(C)C)CCC1)=[N+]2CCCCS(=O)(=O)[O-].O=[N+]([O-])[O-].O=[N+]([O-])[O-].[99Tc+].[C-]#[O+].[C-]#[O+].[C-]#[O+].[Zn+2]			BALB/c mice, S. aureus myositis, brain	12 h post-injection	tissue uptake	0.03 %ID/g
O=C(O)c1ccc(Nc2c(-c3ccccc3)nc3ccc(CON=Cc4ccccc4OCc4nnsc4Cl)cn23)cc1 (mixture of isomers)	TDP1	enzyme activity, inhibitor		100 µM, unpurified compound	inhibition	33.9%
CCCC[C@H](NC(=O)CNC(=O)CNC(=O)[C@H](CCCCNC(=O)[C@H](CC(=O)O)NC(=O)C(C)c1ccc(CC(C)C)cc1)NC(=O)CN1CCN(CC(=O)O)CCN(CC(=O)O)CCN(CC(=O)O)CC1)C(=O)N[C@H]1CC(=O)NCCCC[C@@H](C(N)=O)NC(=O)[C@H](Cc2c[nH]c3ccccc23)NC(=O)[C@H](CCCNC(=N)N)NC(=O)[C@@H](Cc2ccccc2)NC(=O)[C@H](Cc2c[nH]cn2)NC1=O (stereo partly shown) [lutetium-177 labelled]			C57 mice, tumour-bearing, muscle	2 h	tissue uptake	0.29 ± 0.05 %ID/g
COc1ccc(Nc2nc(Nc3ccc(OCCOCC[18F])cc3)ncc2Br)cc1			ICR mice, S180 tumour-bearing, kidney	intravenous, 370 kBq, 30 min	tissue uptake	5.95 ± 0.11 %ID/g
O=C(NCC1OC2CCC=CCCC2O1)c1ccc([18F])nc1 (stereo not shown)			healthy female BALB/c nude mice, large intestine	intravenous, 7.4 MBq per mouse, 10 min	tissue uptake	3.4 ± 0.3 %ID/g
CCCC[C@H](NC(=O)COCCOCCNC(=O)CN1CCN(CC(=O)O)CCN(CC(=O)O)CC1)C(=O)N[C@H]1CC(=O)NCCCC[C@@H](C(N)=O)NC(=O)[C@H](Cc2c[nH]c3ccccc23)NC(=O)[C@H](CCCNC(=N)N)NC(=O)[C@@H](Cc2ccccc2)NC(=O)[C@H](Cc2c[nH]cn2)NC1=O [fluorine-18 labelled]			C57 mice, B16/F10 melanoma, intestines	intravenous, 0.37 MBq, 0.5 h	tissue uptake	1.23 ± 0.32 %ID
COc1ccc(Nc2nc(Nc3ccc(OCCOCCOCC[18F])cc3)ncc2Br)cc1			ICR mice, S180 tumour, stomach	intravenous, 370 kBq, 30 min	tissue uptake	1.54 ± 0.1 %ID
Cc1cc(C)n(CCN(CCN)CCCCCCNC(=O)[C@@H](N)Cc2c[nH]cn2)n1.[99Tc+].[C-]#[O+].[C-]#[O+].[C-]#[O+]			BALB/c nude mice, A549 xenograft, blood	intravenous, 24 h	tissue uptake	0.16 ± 0.02 %IA/g
O=C(NCC1OC2CCC=CCCC2O1)c1ccc(COCCOCCOCC[18F])cc1 (stereo not shown)			healthy female BALB/c nude mice, spleen	intravenous, 7.4 MBq per mouse, 60 min	tissue uptake	2.4 ± 0.6 %ID/g
